Experimental data gathered from unrelated publications.
A part holds a random share of what one study measured. Positions count from the first letter of the parent shown.

Set 1
Target: CCNA2, cyclin fold, Cln2 fusion (human)
Method: yeast growth competition, sequencing
Sample: yeast
Setting: strong parent motif
Reference: not given
Direction: higher = stronger binding
Parent: GMNC docking peptide (human); KNAKRNLSSEFAN; partner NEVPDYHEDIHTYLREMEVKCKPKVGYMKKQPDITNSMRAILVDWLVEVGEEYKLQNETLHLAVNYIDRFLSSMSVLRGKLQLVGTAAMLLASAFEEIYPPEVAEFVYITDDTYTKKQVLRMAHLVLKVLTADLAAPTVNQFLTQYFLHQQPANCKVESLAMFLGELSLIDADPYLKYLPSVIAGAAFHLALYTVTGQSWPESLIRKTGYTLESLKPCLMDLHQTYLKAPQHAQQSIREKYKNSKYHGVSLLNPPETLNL
| Substitution | normalised enrichment score |
| --- | --- |
| A12C | 4.82 |
| K4I | 3.72 |
| L7Y | 0.446 |
| R5C | 0.446 |
| S9N | 4.84 |
| S8A | 5.18 |
| S8Q | 5.08 |
| A3Q | 0.832 |

Set 2
Target: RING finger protein unkempt homolog, zinc fingers 1-6, GST-SBP tag (UNK, Homo sapiens, UniProt Q9C0B0, residues 30-357)
Method: RNA Bind-n-Seq
Molecule type: RNA
Sample: in vitro
Tested at: not given
Setting: RNA with constant flanks, ends assumed
Reference: input RNA pool
Direction: higher = stronger binding
All sequences stand within: GGGAGUUCUACAGUCCGACGAUC … CAACAGAGGAUUGAGCAUCA
Residues (chain): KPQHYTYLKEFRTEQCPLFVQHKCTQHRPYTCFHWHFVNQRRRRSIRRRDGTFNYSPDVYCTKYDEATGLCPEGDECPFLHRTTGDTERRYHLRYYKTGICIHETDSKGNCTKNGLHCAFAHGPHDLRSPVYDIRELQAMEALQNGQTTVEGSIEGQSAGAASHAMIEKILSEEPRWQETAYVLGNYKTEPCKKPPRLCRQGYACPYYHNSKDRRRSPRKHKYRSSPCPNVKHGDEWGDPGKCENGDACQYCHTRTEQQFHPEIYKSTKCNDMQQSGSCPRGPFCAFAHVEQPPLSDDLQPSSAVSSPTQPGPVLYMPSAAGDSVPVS
| Strand | bound/input enrichment [ratio] |
| --- | --- |
| CUGAGCACAGGGGAGUUCUUGAAACUCCCUUUUGAGCGUCUUGCCUUCGUGCUUUCCAGUAACCGCCUUAAGCACUGUACUGAACUUGAGCUCUUUAAGGCUACCUGUCGUUGGCUUCGC | 0.063 |
| AAAAAACCCCGAUUUUAGAUAUUUAGGCUUUCAUUCUAGUUUGGUUUUGUCUUUUCUUGUUCCGAUACCACUUAAAUUCUUGGCAUUUUAGUAAGCAAGCUACCUUUUUAUGGAUGUUAG | 16.3 |
| UGUGCUUUUAUAUAACCAUUUUGUUAUUUGAAUCUUGAAAAACUAGUUUUCUUAUAUUCCUACCGUCUUGGUUUUUUUAAAGGCCUUUGCAUACACCUUUAUGAUAGUUUAAGAUUGACU | 8.21 |
| AGUCUUGCAUCUUUACUAGAACUAUUGAAAGGUGUCUUCAGCACAUGUAAAGGGGACCUCUCCGAAGUUACAGAUGGCAAUGUGAAGACCCAGCCUGCAGUCCUAGAGAAUCUGGUCUUC | 0.144 |
| AUCAGAAAUCUUUUUAGAGAAGCAAAAGCAAAUGCUCCUUGUGUUAUAUUCAUCGAUGAAUCCGAUUCUGUUGGUGGAAAGAGAAUUGAAUCUCCAAUGCACCCGUAUUCAAGGCAGACG | 0.514 |
| ACCAUUGGAUUUAAUGUAGAGACGGUGACGUACAAAAACCUUAAAUUCCAAGUCUGGGAUUCCGGAGGACAGACAAGUAUCAGGCCAUACUGGAGAUGUUACUAUUCAAACACAGAUGCA | 0.219 |
| GAGGAAGAACAAGAAGAGAACCUUGAAGCAAGUGGAGACUAUAAAUAUUCAGGAAGAGACCGUUUGAUUUUUUUGGUUGAUGCCUCCAAGGCUAUGUUUGAAUCUCAGAGUGAAGAUGAG | 0.478 |
| CGGCCCAUGCAGCAAAUGCAGCCCACUGCGCCAAGGAACAGCAAUUUGCGUGAAUUACCCACCGCGCCGUCACACGUGAUAGAAAUGAGCAGCAGCCGCUGCUCUGCCACGCCCUCAGCA | 0.113 |
| UCUUUCCAAAGCAAUGUCUAAAAACUCUUUUUUUUAAAGUAACAGUUUGGUAUGUUUAUUGCCGAUAAAUUAUUUUUGAGGCCUUCAUUUUAGCUAAGUUUAGAAUUUAUAUUAGGCAAC | 8.17 |

Set 3
Target: TAR DNA-binding protein 43, full length, His tag (TARDBP, Homo sapiens, UniProt Q13148, residues 1-414)
Method: RNA Bind-n-Seq
Molecule type: RNA
Sample: in vitro
Tested at: 20 nM
Setting: 6-mer, flanks averaged, single round
With: 150 mM LiCl
Reference: input library
Direction: higher = stronger binding
| Strand | 6-mer enrichment (R) |
| --- | --- |
| CUAGGA | 0.851 |
| UAGCUG | 0.946 |
| AUGGCA | 0.94 |
| CCCUGC | 1.05 |
| CGUGAG | 1.04 |
| GCCUAC | 0.917 |
| CGGGAG | 1.07 |
| AAGUGC | 0.973 |

Single results of other studies
| Molecule | target | test | system | setting | scale | measurement | result |
| --- | --- | --- | --- | --- | --- | --- | --- |
| PhoQ, residues 284 288 289 292 302 303 ALSMDL | PhoP, residues 12 14 15 18 19 AWHSL (Escherichia coli, UniProt P23836) | Sort-seq, measured: YFP reporter | E. coli | PhoQ-PhoP variant library, with: 10 µM Mg2+ | reference: high Mg2+ state, higher = stronger signaling | fold induction | 2.11 |

A few entries again (set 3):
| Strand | 6-mer enrichment (R) |
| --- | --- |
| CGUGAG | 1.04 |
| CUAGGA | 0.851 |
